Published values collected from several papers.
Each line is one published result; not all experiments were run side by side. “And” joins repeats or separate records; there may be more than shown.
Cell line: UACC-62

CCCCN1CCN(c2ccc3[nH]c(-c4ccc5[nH]c(-c6ccc(OCC)cc6)nc5c4)nc3c2)CC1  growth percent (SRB; 10 µM, 48 h): 59.9%
O=C(Nc1nnc2n3c(=S)[nH][nH]c3nc(-c3ccc(Cl)cc3)c1-2)c1ccccc1  cell growth (SRB; 10 µM, NCI60 single-dose screen; baseline: untreated): 93.5%
CCCCN1CCN(c2ccc3[nH]c(-c4ccc5[nH]c(-c6cc(OC)c(OC)c(OC)c6)nc5c4)nc3c2)CC1  growth percent (SRB; 10 µM, 48 h): 39.5%
O=C(Nc1nnc2n3c(Cc4ccccc4)n[nH]c3nc(-c3ccc(Cl)cc3)c1-2)c1ccccc1  cell growth (SRB; 10 µM, NCI60 single-dose screen; baseline: untreated): 102%
CCCCN1CCN(c2ccc3[nH]c(-c4ccc5[nH]c(-c6ccc(C(F)(F)F)cc6)nc5c4)nc3c2)CC1  growth percent (SRB; 10 µM, 48 h): -31.6%
O=C(/C=C/C=C/C=C/C1CCCCC1)NC1=C[C@@](O)(/C=C/C=C/C=C/C(=O)NC2=C(O)CCC2=O)[C@@H]2O[C@@H]2C1=O  GI50 (cell growth, CellTiter-Glo; 78 h): 14.2 µM
C#C[C@@]1(O)[C@@H](CO)O[C@@H](n2cc(I)c3c(N)ncnc32)[C@@H]1O  TGI (SRB; NCI-60 screen): 2.38 µM and 3.23 µM
CCOc1ccc(-c2nc3cc(-c4nc5cc(N6CCN(C)CC6)ccc5[nH]4)ccc3[nH]2)cc1OCC  growth percent (SRB; 10 µM, 48 h): -14.3%
O=c1ccn(Cc2cn(-c3c4ccccc4nc4ccccc34)nn2)c(=O)[nH]1  growth percentage (NCI60 single-dose screen; 10 µM): 91.4%
CN1CCN(c2ccc3[nH]c(-c4ccc5[nH]c(-c6ccc(C(F)(F)F)cc6)nc5c4)nc3c2)CC1  growth percent (SRB; 10 µM, 48 h): 67.5%
Cc1cc(=O)[nH]c(=O)n1Cc1cn(-c2c3ccccc3nc3ccccc23)nn1  growth percentage (NCI60 single-dose screen; 10 µM): 85.2%
NNc1nc(-c2ccc(Cl)cc2)c2c(NC(=O)c3ccccc3)nnc-2[nH]1  cell growth (SRB; 10 µM, NCI60 single-dose screen; baseline: untreated): 102%
C#C[C@@]1(O)[C@@H](CO)O[C@@H](n2cc(F)c3c(N)ncnc32)[C@@H]1O  TGI (SRB; NCI-60 screen): 1.47 µM
O=C(Nc1nnc2[nH]c(=S)[nH]c(-c3ccc(Cl)cc3)c1-2)c1ccccc1  cell growth (SRB; 10 µM, NCI60 single-dose screen; baseline: untreated): 101%
Cn1cncc1C1=CN(c2ncnc3[nH]cnc23)CCS1  TGI (melanoma cell line): 42.7 µM
CCCN1CCN(c2ccc3[nH]c(-c4ccc5[nH]c(-c6ccc(OCC)c(OCC)c6)nc5c4)nc3c2)CC1  growth percent (SRB; 10 µM, 48 h): -85%
O=c1ccn(Cc2cn(-c3cc4ccccc4oc3=O)nn2)c(=O)[nH]1  growth percentage (NCI60 single-dose screen; 10 µM): 96.8%
CSc1nc(-c2ccc(Cl)cc2)c2c(NC(=O)c3ccccc3)nnc-2[nH]1  cell growth (SRB; 10 µM, NCI60 single-dose screen; baseline: untreated): 94.2%
C#C[C@@]1(O)[C@@H](CO)O[C@@H](n2ccc3c(N)ncnc32)[C@@H]1O  TGI (SRB; NCI-60 screen): 4.48 µM
O=C1NC(c2ccccc2)(c2ccccc2)C(=O)N1Cc1cn(-c2cc3ccccc3oc2=O)nn1  growth percentage (NCI60 single-dose screen; 10 µM): 79.3%

Excerpt of the above:
C#C[C@@]1(O)[C@@H](CO)O[C@@H](n2cc(F)c3c(N)ncnc32)[C@@H]1O  TGI (SRB; NCI-60 screen): 1.47 µM
O=C(Nc1nnc2[nH]c(=S)[nH]c(-c3ccc(Cl)cc3)c1-2)c1ccccc1  cell growth (SRB; 10 µM, NCI60 single-dose screen; baseline: untreated): 101%
Cn1cncc1C1=CN(c2ncnc3[nH]cnc23)CCS1  TGI (melanoma cell line): 42.7 µM
